Experimental data of several laboratories.
Protocols differ between the studies behind these lines. Several values in a cell are separate wells, animals, samples, runs or records. Numbers after ± are the reported error.

SMILES | test | system | conditions | how to read | endpoint | result
CCCCN1C(=O)c2cccc3c(NCCN4CCOCC4)ccc(c23)C1=O |  | Toluene |  |  | molar extinction coefficient | 5570 M⁻¹ cm⁻¹
COc1cccc(OC)c1-c1cc(C(=O)NC2(C(=O)O)C3CC4CC(C3)CC2C4)nn1-c1ccc(C(=O)N(C)CCCN(C)C(=O)[C@H](CCCCNC(=O)[C@H](CC(C)C)NC(=O)C2OC2C(=O)O)NC(=O)CN2CCN(CC(=O)[O-])CCN(CC(=O)[O-])CCN(CC(=O)[O-])CC2)cc1C(C)C.[177Lu+3] (mixture of isomers) |  | mouse, HT-29 xenograft | 24 h post injection, biodistribution | relative to: tumour over brain uptake | tumour-to-brain ratio | 47.4
CC[C@H](C)[C@@H]1NC(=O)[C@H](Cc2ccc(O)cc2)NC(=O)CCCSC[C@@H](C(=O)N(CC(=O)N[C@@H](CC(C)C)C(=O)NCC(N)=O)Cc2ccc(F)cc2)NC(=O)[C@H](CC(N)=O)NC(=O)[C@H](CCC(N)=O)NC1=O |  | healthy human, plasma | intranasal, 50 µg every 3 h, after last dose |  | AUC(0-t) | 0.018 ng·h/mL
C=C[C@]1(C)C[C@@H](OC(=O)CSc2ccc(NC(=O)c3ccco3)cc2)[C@]2(C)[C@H](C)CC[C@]3(CCC(=O)[C@H]32)[C@@H](C)[C@@H]1O |  | M. gallisepticum-infected chickens, plasma | intramuscular, 5 mg/kg single dose |  | Tmax | 22.8 min
[123I]c1ccc2nc(-c3ccc(-n4ccnn4)nc3)cn2c1 |  | male Wistar rat, spleen | intravenous, 4 MBq, 5 min |  | tracer uptake | 1.1 %ID/g
C/C(N)=N/C(=N\S(=O)(=O)c1ccc(C(F)(F)F)cc1)N1C[C@H](c2ccccc2)C(c2ccc(Cl)cc2)=N1 |  | beagle dog, plasma | oral, 24 mg/kg |  | bioavailability | 28%
O=C(Nc1cnccc1-c1ccc([18F])cc1)c1ccnc(NC(=O)C2CC2)c1 | ex vivo gamma counting | FVB/NJ mice, both sexes, caudate nucleus | intravenous, 120 min |  | mean SUV | 0.06
CCCCN1C(=O)c2cccc3c(NCCCN4CCOCC4)ccc(c23)C1=O |  | Dioxane |  |  | molar extinction coefficient | 5200 M⁻¹ cm⁻¹
CC(C)(C)C(=O)Nc1ccc2[nH]c(CN3CCC(N(CCCN4CCOCC4)CC4OC(n5cnc6c(N)ncnc65)C(O)C4O)CC3)nc2c1 (centres unmarked) |  | male Sprague-Dawley rat, plasma | intravenous, 20 mg/kg, 4 h |  | concentration | 6 ng/mL
O=C1C2CC3CC1CC(C(=O)N1CCN(c4ccc([N+](=O)[O-])c5ncccc45)CC1)(C3)C2 |  | male ICR mice, plasma | intravenous, 1 mg/kg, 0.25 h |  | plasma concentration | 75.1 ng/mL
CCC(CC)n1c(Cc2ccco2)nc2cc(C(=O)N[C@@H](CC(=O)O)c3ccccc3)ccc21 | echocardiography, refers to: LVEF, FS | mouse | dose not given, 2 wk |  | cardiac function | no effect
O=C1CCC(N2Cc3cc(C(=O)O)c(F)cc3C2=O)C(=O)N1 (centres unmarked) |  | cynomolgus monkey, male | oral, 0.3 mg/kg parent drug, 0.5 h |  | plasma concentration | 1.4 ± 1 ng/mL
CC[C@H](C)[C@H](NC(=O)[C@H](Cc1ccc(O)cc1)NC(=O)[C@@H](NC(=O)[C@H](CCCNC(=N)N)NC(=O)[C@@H](N)CC(=O)O)C(C)C)C(=O)N[C@@H](Cc1c[nH]cn1)C(=O)N1CCC[C@H]1C(=O)O | LC-MS/MS | Sprague-Dawley rats, plasma | subcutaneous, 10 mg/kg/day, day 0 |  | elimination rate constant | 0.025 min⁻¹
CC(=O)N([O-])CCCCCNC(=O)CCC(=O)N([O-])CCCCCNC(=O)CCC(=O)N([O-])CCCCCN.[89Zr+4] |  | mouse plasma | 5 d, 37 °C |  | intact complex | 85 ± 7.1%
CCCCCCCOc1ccc(CC[C@](N)(CO)COP(=O)(O)O)cc1C(F)(F)F |  | healthy men, urine | oral, 0.25 mg once daily, day 1, fed state | relative to: dose | urinary excretion (0-24 h) | 0%
C[C@@H](Nc1c(-c2c(F)cc(C#N)cc2F)c(Cl)nc2ncnn12)C(C)(C)C |  | male PS19 tau transgenic mice | intraperitoneal, 3 mg/kg twice weekly, 3 months | relative to: vehicle | organ weight | no effect

SMILES | test | system | conditions | how to read | endpoint | result
CCCCN1C(=O)c2cccc3c(NCCCCCN4CCOCC4)ccc(c23)C1=O |  | DMSO |  |  | molar extinction coefficient | 8830 M⁻¹ cm⁻¹
Fc1ccc(/C=N/Nc2nnc(N/N=C/c3ccc(F)cc3)c3ccccc23)cc1 | haemolysis | human | 1 mM, 45 min |  | haemolysis | 5.2%
CCCCN1C(=O)c2cccc3c(NCCCCN4CCOCC4)ccc(c23)C1=O |  | dichloromethane |  |  | fluorescence lifetime | 10.4 ns
C=CC(=O)Nc1cc(Nc2nccc(-c3c[nH]c4ccccc34)n2)c(OC)cc1N(C)CCN(C)C | storage stability | human dried blood spot | 2 h, on ice, MQC level |  | recovery | 87.6%
O=C(Nc1cnccc1-c1ccc([18F])nc1)c1ccnc(NC(=O)C2CC2)c1 |  | FVB/NJ mice (both sexes), muscle | intravenous, dose not given, 120 min, together with: tariquidar 15 mg/kg i.v. pre-dose |  | SUV | 3.26
COc1ccc2c(c1)O[B-]1(c3ccccc3)OC(=O)C(c3ccccc3)=N[N+]1=C2 (centres unmarked) |  | toluene |  |  | molar absorption coefficient | 22000 M⁻¹ cm⁻¹
CCC(C(=O)Nc1ccc(C(N)=O)c(F)c1)n1cc(OC)c(-c2cc(Cl)ccc2-n2cc(C(F)(F)F)nn2)cc1=O (centres unmarked) |  | healthy male humans | 50 mg, maximum intensity, together with: antacid |  | mild adverse events | 14.3%
CCC1C=C(C)C(O)C(C)CC(OC)C2OC(O)(C(=O)C(=O)N3CCCCC3C(=O)OC(C(C)=CC3CCC(O)C(OC)C3)C(C)C(O)CC1=O)C(C)CC2OC (centres unmarked) |  | C57BL/6 mouse, blood | topical single dose, dose not given, 1 h |  | blood concentration | not detected
Cc1cc(-c2ccc(C(=O)[C@@H]3CCCC[C@H]3C(=O)Nc3cnn4c3C(=O)NCC4)cc2)[nH]n1 |  | human, urine | oral, 200 mg, 0-144 h | relative to: dose | cumulative recovery of radioactivity | 5.88%
CNC(=O)C[C@H](Cc1ccc(C#N)cc1)NC(=O)c1cc(-c2ccc(CN[C@H](C)c3ccc(C)cc3)o2)ccc1Cl |  | rat liver microsomes | 1 µM |  | blood clearance | 65 mL/min/kg
Cc1nn(-c2nc3c(F)cc(F)cc3s2)c(O)c1C(c1ccc(C(F)(F)F)cc1)c1c(C)nn(-c2nc3c(F)cc(F)cc3s2)c1O |  | ICR mouse, plasma | intraperitoneal, 10 mg/kg |  | AUC(all) | 26400 ng·h/mL and 26000 ng·h/mL and 28700 ng·h/mL
OC1(C(F)(F)F)CCN(c2nc(Nc3ccnc(C(F)(F)F)c3)nc(-c3cccc(C(F)(F)F)n3)n2)C1 (centres unmarked) |  | Sprague-Dawley rat, both sexes, plasma | oral gavage, 5 mg/kg, day 1 |  | AUC(0-inf) | 9780 ± 1200 ng·h/mL
CCC(=O)N(C)c1ccc(Cl)c(Cl)c1 |  | female C57BL/6 mice | subcutaneous, 2 mg/kg, 0.083 h |  | plasma concentration | 370 ng/mL
CN(O)C(=O)CCC(=O)NCCCN(CCCCN(CCCNC(=O)CCC(=O)N(C)O)C(=O)CCC(=O)N(C)O)C(=O)CCC(=O)N(C)O.[89Zr] | radio-TLC | aqueous buffer | 7 d, pH 8.5, 37 °C, 89Zr-labelled complex, together with: DTPA 100-fold excess |  | intact complex | 97 ± 3.5%
CCCCN1C(=O)c2cccc3c(NCCCCCCN4CCOCC4)ccc(c23)C1=O |  | ethylene glycol |  |  | molar extinction coefficient | 13600 M⁻¹ cm⁻¹
O=C(NS(=O)(=O)c1cccs1)c1cc2ccccc2n1Cc1ccc(Br)c2ccccc12 |  | Sprague-Dawley rat, male |  |  | oral bioavailability | 53.2%

A few entries again:
SMILES | test | system | conditions | how to read | endpoint | result
CCC1C=C(C)C(O)C(C)CC(OC)C2OC(O)(C(=O)C(=O)N3CCCCC3C(=O)OC(C(C)=CC3CCC(O)C(OC)C3)C(C)C(O)CC1=O)C(C)CC2OC (centres unmarked) |  | C57BL/6 mouse, blood | topical single dose, dose not given, 1 h |  | blood concentration | not detected
Cc1cc(-c2ccc(C(=O)[C@@H]3CCCC[C@H]3C(=O)Nc3cnn4c3C(=O)NCC4)cc2)[nH]n1 |  | human, urine | oral, 200 mg, 0-144 h | relative to: dose | cumulative recovery of radioactivity | 5.88%
CNC(=O)C[C@H](Cc1ccc(C#N)cc1)NC(=O)c1cc(-c2ccc(CN[C@H](C)c3ccc(C)cc3)o2)ccc1Cl |  | rat liver microsomes | 1 µM |  | blood clearance | 65 mL/min/kg
Cc1nn(-c2nc3c(F)cc(F)cc3s2)c(O)c1C(c1ccc(C(F)(F)F)cc1)c1c(C)nn(-c2nc3c(F)cc(F)cc3s2)c1O |  | ICR mouse, plasma | intraperitoneal, 10 mg/kg |  | AUC(all) | 26400 ng·h/mL and 26000 ng·h/mL and 28700 ng·h/mL
